Experimental data gathered from unrelated publications.
Parts stem from different laboratories: compare values within a part only.
UniProt O95747, sequence (whole entry, looked up): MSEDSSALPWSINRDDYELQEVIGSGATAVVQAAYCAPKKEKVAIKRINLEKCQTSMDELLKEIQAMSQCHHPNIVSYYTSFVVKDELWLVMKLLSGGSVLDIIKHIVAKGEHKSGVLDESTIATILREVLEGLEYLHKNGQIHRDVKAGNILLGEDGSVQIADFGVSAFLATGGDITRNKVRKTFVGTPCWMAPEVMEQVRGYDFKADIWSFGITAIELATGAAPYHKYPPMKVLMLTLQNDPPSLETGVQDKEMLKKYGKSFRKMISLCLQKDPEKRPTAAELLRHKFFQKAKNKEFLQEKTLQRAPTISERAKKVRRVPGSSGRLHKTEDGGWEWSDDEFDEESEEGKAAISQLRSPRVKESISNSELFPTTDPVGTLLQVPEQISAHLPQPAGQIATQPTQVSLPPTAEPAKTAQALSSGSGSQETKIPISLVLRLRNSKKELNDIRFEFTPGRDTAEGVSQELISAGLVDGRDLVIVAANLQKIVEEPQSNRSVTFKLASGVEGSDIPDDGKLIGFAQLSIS
UniProt Q9UM73, sequence (whole entry, unmodified, looked up): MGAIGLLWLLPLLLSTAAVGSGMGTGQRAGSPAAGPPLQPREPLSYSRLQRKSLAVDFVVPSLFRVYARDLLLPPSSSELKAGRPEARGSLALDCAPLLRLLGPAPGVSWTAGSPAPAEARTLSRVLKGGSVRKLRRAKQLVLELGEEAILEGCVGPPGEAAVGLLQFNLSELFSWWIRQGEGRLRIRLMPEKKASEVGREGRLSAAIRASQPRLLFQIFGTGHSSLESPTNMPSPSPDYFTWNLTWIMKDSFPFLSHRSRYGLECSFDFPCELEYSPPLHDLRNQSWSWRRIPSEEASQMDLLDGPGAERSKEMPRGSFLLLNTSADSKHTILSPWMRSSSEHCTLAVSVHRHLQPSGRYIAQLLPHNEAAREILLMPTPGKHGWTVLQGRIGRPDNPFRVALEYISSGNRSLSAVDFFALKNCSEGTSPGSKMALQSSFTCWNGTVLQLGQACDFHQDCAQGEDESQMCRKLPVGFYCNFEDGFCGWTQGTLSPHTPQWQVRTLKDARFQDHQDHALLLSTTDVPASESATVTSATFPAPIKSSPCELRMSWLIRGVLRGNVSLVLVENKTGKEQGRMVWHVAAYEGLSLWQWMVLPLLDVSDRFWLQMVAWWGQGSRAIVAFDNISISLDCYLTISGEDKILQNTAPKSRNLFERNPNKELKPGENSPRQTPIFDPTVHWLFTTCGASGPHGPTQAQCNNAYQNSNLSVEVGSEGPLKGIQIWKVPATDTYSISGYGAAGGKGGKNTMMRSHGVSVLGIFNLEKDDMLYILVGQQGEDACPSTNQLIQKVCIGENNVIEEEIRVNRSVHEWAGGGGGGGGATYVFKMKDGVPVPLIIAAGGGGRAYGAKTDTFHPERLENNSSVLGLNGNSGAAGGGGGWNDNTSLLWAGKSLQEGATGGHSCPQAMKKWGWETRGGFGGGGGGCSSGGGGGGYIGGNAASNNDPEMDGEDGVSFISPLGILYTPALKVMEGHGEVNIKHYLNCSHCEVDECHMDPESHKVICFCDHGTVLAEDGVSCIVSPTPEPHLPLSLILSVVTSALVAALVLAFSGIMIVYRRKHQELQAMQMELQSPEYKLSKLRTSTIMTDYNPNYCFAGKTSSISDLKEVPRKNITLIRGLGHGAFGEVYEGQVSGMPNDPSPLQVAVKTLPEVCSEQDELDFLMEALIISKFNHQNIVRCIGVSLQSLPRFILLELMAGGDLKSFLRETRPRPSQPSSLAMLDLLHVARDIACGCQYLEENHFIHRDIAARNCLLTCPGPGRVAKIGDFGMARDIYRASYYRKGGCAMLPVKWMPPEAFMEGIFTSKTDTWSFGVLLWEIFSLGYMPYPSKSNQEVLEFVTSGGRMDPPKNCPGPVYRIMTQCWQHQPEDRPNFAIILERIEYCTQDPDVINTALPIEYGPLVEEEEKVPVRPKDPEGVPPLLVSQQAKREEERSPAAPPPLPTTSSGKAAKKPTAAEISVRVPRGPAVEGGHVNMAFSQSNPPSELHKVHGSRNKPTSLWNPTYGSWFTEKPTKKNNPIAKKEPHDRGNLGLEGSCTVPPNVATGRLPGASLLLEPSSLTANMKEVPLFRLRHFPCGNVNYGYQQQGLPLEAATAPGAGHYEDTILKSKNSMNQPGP
UniProt Q12866, sequence (whole entry, looked up): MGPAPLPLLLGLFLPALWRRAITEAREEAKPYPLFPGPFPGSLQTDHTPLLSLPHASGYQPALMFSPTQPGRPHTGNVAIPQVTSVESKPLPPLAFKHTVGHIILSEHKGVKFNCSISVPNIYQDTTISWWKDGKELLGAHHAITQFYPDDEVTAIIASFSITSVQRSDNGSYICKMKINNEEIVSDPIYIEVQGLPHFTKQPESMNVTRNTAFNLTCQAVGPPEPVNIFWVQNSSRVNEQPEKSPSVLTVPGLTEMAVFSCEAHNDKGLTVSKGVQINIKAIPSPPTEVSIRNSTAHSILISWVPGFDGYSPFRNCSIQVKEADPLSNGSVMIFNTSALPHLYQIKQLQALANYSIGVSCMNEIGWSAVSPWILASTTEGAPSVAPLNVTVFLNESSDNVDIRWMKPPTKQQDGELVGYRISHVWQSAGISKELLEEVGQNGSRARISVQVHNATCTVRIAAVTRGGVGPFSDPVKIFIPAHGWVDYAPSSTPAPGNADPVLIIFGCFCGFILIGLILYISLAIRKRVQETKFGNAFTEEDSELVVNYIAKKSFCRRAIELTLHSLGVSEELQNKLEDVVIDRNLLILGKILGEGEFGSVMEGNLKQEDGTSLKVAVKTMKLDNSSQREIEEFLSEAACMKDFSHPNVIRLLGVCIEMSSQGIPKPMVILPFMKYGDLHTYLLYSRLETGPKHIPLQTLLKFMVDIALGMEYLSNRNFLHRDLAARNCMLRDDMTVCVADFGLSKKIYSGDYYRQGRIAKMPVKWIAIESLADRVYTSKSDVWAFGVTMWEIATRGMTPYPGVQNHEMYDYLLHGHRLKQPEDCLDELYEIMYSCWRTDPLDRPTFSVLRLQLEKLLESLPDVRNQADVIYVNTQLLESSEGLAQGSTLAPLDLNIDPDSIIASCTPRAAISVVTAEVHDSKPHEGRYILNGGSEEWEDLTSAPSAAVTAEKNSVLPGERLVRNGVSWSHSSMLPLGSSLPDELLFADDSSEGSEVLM
UniProt P32298, sequence (whole entry, looked up): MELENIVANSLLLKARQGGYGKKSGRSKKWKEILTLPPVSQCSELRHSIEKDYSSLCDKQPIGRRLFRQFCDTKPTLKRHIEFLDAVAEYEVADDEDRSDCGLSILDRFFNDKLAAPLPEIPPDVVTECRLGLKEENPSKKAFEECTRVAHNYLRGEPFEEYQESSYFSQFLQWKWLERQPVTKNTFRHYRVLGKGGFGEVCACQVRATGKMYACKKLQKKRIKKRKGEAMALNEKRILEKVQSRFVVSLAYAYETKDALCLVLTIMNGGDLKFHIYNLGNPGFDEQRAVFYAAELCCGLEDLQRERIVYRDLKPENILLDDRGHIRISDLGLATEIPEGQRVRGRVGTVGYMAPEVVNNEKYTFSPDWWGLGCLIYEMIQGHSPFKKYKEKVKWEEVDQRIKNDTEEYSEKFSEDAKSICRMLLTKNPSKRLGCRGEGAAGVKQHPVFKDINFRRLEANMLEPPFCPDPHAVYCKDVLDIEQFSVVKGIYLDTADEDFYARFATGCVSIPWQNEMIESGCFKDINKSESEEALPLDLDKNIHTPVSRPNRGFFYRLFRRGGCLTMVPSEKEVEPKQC
UniProt O94804, sequence (whole entry, looked up): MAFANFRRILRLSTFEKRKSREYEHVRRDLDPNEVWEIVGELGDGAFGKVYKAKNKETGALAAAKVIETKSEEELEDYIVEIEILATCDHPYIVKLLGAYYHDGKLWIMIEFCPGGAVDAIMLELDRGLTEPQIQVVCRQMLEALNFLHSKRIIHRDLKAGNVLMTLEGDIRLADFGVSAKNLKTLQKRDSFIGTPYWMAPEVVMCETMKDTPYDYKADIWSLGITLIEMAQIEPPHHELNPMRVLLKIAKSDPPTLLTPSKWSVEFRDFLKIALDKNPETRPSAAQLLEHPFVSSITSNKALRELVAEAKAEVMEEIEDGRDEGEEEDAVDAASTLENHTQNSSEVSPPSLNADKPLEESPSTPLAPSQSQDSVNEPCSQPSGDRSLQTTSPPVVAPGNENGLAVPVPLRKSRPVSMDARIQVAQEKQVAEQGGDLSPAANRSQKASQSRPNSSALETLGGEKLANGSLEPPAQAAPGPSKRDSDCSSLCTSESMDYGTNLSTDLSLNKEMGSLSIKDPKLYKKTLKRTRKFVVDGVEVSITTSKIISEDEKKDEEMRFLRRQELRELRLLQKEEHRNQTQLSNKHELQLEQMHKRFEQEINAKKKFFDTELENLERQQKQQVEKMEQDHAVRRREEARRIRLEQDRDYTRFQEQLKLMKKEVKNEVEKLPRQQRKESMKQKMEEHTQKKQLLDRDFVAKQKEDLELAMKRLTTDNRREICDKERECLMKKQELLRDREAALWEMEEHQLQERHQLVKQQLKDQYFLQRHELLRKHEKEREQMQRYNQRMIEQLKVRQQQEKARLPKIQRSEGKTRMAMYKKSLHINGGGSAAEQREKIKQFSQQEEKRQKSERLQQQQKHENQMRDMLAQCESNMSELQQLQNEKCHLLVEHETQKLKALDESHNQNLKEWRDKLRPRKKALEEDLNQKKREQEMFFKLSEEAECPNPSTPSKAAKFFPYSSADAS
UniProt Q9UIK4, sequence (whole entry, looked up): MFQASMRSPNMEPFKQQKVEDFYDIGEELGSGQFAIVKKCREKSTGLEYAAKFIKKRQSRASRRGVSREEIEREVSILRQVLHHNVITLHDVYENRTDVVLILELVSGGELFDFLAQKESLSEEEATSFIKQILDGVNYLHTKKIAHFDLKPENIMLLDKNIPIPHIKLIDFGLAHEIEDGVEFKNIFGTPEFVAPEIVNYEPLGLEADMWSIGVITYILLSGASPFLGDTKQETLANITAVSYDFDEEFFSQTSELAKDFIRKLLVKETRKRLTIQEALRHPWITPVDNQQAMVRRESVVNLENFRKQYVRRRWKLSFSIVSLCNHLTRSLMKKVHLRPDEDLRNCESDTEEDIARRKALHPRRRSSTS

Study 1
Host: mouse
Sample: microsomes or S9
Tested at: 2 µM
Time: 0.5 h
With `Cc1ccc(C(=O)/N=c2\c(C)cccn2C(=O)c2ccc(C)o2)o1` the remaining compound was 0.0767%.
`O=[N+]([O-])c1cccc(F)c1COc1cccc(C(F)(F)F)c1` gave a remaining compound of over 99%.
The remaining compound of `CN1CCN(c2ccc3[nH]c(-c4ccc5[nH]c(-c6ccc(O)cc6)nc5c4)nc3c2)CC1` is reported as 44.3%.
`CN(C(=O)c1ccc2cc[nH]c2c1)C1CCc2nn(C)c(=O)n2CC1` (centres unmarked) gave a remaining compound of over 100%.
For `Cn1ncc(N2CC(O)CC2C2CCCCC2)c(Br)c1=O` (centres unmarked), the remaining compound was 30.1%.
The remaining compound of `O=S(=O)(c1ccc(Cl)s1)N1CCNCC1` is reported as 77.5%.
The remaining compound of `CC(=O)Nc1ccc(Nc2ncnc3c2cnn3-c2cccc(C)c2)cc1` is reported as 56.3%.
`CCCN(CC(=O)OC(C)(C)C)C(=O)Cc1c(C)[nH]c2ccnn2c1=O` gave a remaining compound of 91.8%.
`Cc1cn[nH]c1C1(C)CCCN(S(=O)(=O)c2cnn(C)c2)C1` (centres unmarked) gave a remaining compound of 33.8%.
With `CC(=O)N1c2ccc(S(=O)(=O)Nc3ccc(C(=O)c4c(C)nc5sccn45)cc3)cc2CC1C` (centres unmarked) the remaining compound was 7.12%.
For `COc1cc2c(cc1OC)CCN(C(C)C(=O)NC(C)C)CC2` (centres unmarked), the remaining compound was 0.19%.
For `CC1c2cccn2-c2sc3c(c2CN1C(=O)NC1CCCC1)CCCC3` (centres unmarked), the remaining compound was under 1%.
`CC(C)(C)C1CCc2onc(C(=O)NCCCOc3ccccc3F)c2C1` (centres unmarked) has a remaining compound of 0.715%.

Study 2
Compound: Cc1cn(-c2cc(NC(=O)c3ccc(C)c(Nc4nccc(-c5cccnc5)n4)c3)cc(C(F)(F)F)c2)cn1
Read-out: enzyme activity
Mode: inhibitor
Tested at: 0.5 µM
Relative to: control
The remaining activity was 92.9% (Protein kinase C beta type, isoform beta-I (PRKCB, Homo sapiens, UniProt P05771)).
The remaining activity was 100% (TGFBR2 (Homo sapiens, UniProt P37173)).
The remaining activity was 98.6% (PRKACA (Homo sapiens, UniProt P17612)).
CHEK2 (Homo sapiens, UniProt O96017) — remaining activity: 102%.
For CAMKK2 (Homo sapiens, UniProt Q96RR4): remaining activity read 97.5%.
It gave 95.1% for remaining activity (GRK3 (Homo sapiens, UniProt P35626)).
TGFBR1 (Homo sapiens, UniProt P36897) — remaining activity: 99.9%.
For Tyrosine-protein kinase Lyn, isoform B (LYN, Homo sapiens, UniProt P07948): remaining activity read 50.7%.
The remaining activity was 97.1% (cGMP-dependent protein kinase 1, isoform beta (PRKG1, Homo sapiens, UniProt Q13976)).
It gave 103% for remaining activity (STK10 (Homo sapiens, UniProt O94804)).
The remaining activity was 91.7% (Cyclin-dependent kinase 5, with p25 (CDK5, Homo sapiens, UniProt Q00535)).
The remaining activity was 105% (OXSR1 (Homo sapiens, UniProt O95747)).
It gave 103% for remaining activity (NEK2 (Homo sapiens, UniProt P51955)).
The remaining activity was 115% (MAP3K3 (Homo sapiens, UniProt Q99759)).
The remaining activity was 95.9% (MAPK9 (Homo sapiens, UniProt P45984)).
For DAPK2 (Homo sapiens, UniProt Q9UIK4): remaining activity read 100%.
The remaining activity was 94.6% (IKBKE (Homo sapiens, UniProt Q14164)).
PRKCA (Homo sapiens, UniProt P17252) — remaining activity: 83.5%.
For CAMK2D (Homo sapiens, UniProt Q13557): remaining activity read 90%.
The remaining activity was 96.3% (STK39 (Homo sapiens, UniProt Q9UEW8)).
IKBKB (Homo sapiens, UniProt O14920) — remaining activity: 82.8%.
The remaining activity was 97% (Cyclin-dependent kinase 4, with cyclin D1 (CDK4, Homo sapiens, UniProt P11802)).
The remaining activity was 102% (DAPK1 (Homo sapiens, UniProt P53355)).

Study 3
SMILES: O=C(O)[C@H]1[C@H](Cn2nnc3ccccc3c2=O)CC[C@@H]1C(=O)c1ccc(OCCC2CCOCC2)cc1
Method: competition with immobilised ligand
Tested at: 1 µM
It gave 64% for remaining binding (MAP3K15 (Homo sapiens, UniProt Q6ZN16); cell-free assay).
It gave 83% for remaining binding (Ribosomal protein S6 kinase alpha-3, C-terminal kinase domain (RPS6KA3, Homo sapiens, UniProt P51812); cell-free assay).
It gave 81% for remaining binding (ALK (Homo sapiens, UniProt Q9UM73, L1196M); cell-free assay).
The remaining binding was 100% (PRKG2 (Homo sapiens, UniProt Q13237); cell-free assay).
EIF2AK1 (Homo sapiens, UniProt Q9BQI3); cell-free assay — remaining binding: 78%.
It gave 87% for remaining binding (MAP4K1 (Homo sapiens, UniProt Q92918); cell-free assay).
The remaining binding was 88% (MAP3K12 (Homo sapiens, UniProt Q12852); cell-free assay).
DSTYK (Homo sapiens, UniProt Q6XUX3); cell-free assay — remaining binding: 100%.
The remaining binding was 82% (GRK4 (Homo sapiens, UniProt P32298); cell-free assay).
For HASPIN (Homo sapiens, UniProt Q8TF76); cell-free assay: remaining binding read 84%.
The remaining binding was 77% (OXSR1 (Homo sapiens, UniProt O95747); cell-free assay).
FLT1 (Homo sapiens, UniProt P17948); cell-free assay — remaining binding: 96%.
It gave 88% for remaining binding (PIK3CA (Homo sapiens, UniProt P42336, H1047Y); cell-free assay).
The remaining binding was 78% (MAP3K19 (Homo sapiens, UniProt Q56UN5); cell-free assay).
MERTK (Homo sapiens, UniProt Q12866); cell-free assay — remaining binding: 61%.
Non-receptor tyrosine-protein kinase TYK2, JH2 (TYK2, Homo sapiens, UniProt P29597); cell-free assay — remaining binding: 100%.
For FLT3 (Homo sapiens, UniProt P36888, K663Q); cell-free assay: remaining binding read 100%.
It gave 69% for remaining binding (Myosin-IIIb (MYO3B, Homo sapiens, UniProt Q8WXR4); binding).
Tyrosine-protein kinase JAK3, JH1 (JAK3, Homo sapiens, UniProt P52333); cell-free assay — remaining binding: 100%.
For LATS2 (Homo sapiens, UniProt Q9NRM7); cell-free assay: remaining binding read 100%.
The remaining binding was 89% (PTK2 (Homo sapiens, UniProt Q05397); cell-free assay).
It gave 100% for remaining binding (RIOK2 (Homo sapiens, UniProt Q9BVS4); cell-free assay).
The remaining binding was 69% (NEK10 (Homo sapiens, UniProt Q6ZWH5); cell-free assay).
The remaining binding was 100% (PIP4K2C (Homo sapiens, UniProt Q8TBX8); cell-free assay).
The remaining binding was 87% (FLT3 (Homo sapiens, UniProt P36888, D835V/ITD); cell-free assay).

Study 4
Cell line: mouse MPNST tumor cells
Method: high-content nuclear imaging
Refers to: cell number
Tested at: 10 µM
Time: 12 h
Notes: mean of 2 replicates
Relative to: plate mean
Direction: higher = more cells
For `O=C(NO)c1cccc(C(=O)NCCc2ccccc2)c1`, the nuclei count was 3.06 z-score.
`CN(C)CCC(c1ccccc1)c1ccccn1` (centres unmarked) has a nuclei count of -0.0174 z-score.
With `O=C(O)C[C@H]1CC[C@H](c2ccc(NC(=O)c3nnc(Nc4ccc(F)c(F)c4)o3)cc2)CC1` the nuclei count was 3.3 z-score.
`O=S(=O)(O)c1cc(O)ccc1O` gave a nuclei count of 0.786 z-score.
The nuclei count of `Nc1cc(C(Cl)=C(Cl)Cl)c(S(N)(=O)=O)cc1S(N)(=O)=O` is reported as 0.866 z-score.
`Nc1ncnc2c1ncn2[C@@H]1O[C@H](CO)[C@@H](O)[C@H]1O` gave a nuclei count of -0.0444 z-score.
With `CC1(C)CCC(C)(C)c2cc(C(=O)Nc3ccc(C(=O)O)cc3)ccc21` the nuclei count was -0.252 z-score.
The nuclei count of `CCOc1nc2c(N)ncnc2n1CC` is reported as 0.908 z-score.
The nuclei count of `CN(C)CCCN1c2ccccc2Sc2ccc(C(F)(F)F)cc21` is reported as -7.3 z-score.
`C[C@@H](O)[C@H]1C(=O)N2C(C(=O)O)=C(SCCNC=N)C[C@H]12` gave a nuclei count of -0.421 z-score.
